Results collected from several papers.
A part holds a random share of what one study measured. pIC50: −log10 of the molar value.

Series 1 — observed: enzyme activity; mode: inhibitor; tested at: 20 µM
Target: Replicase polyprotein 1ab, polymerase (rep, Severe acute respiratory syndrome coronavirus 2, UniProt P0DTD1)
Compound | inhibition [%]
CC(=O)Nc1cccc2c1c(Sc1ccc(Cl)cc1)c(C)n2CC(=O)O | -1.84
CC(C)NCCCn1c(Sc2cc3c(cc2I)OCO3)nc2c(N)ncnc21 | 2.31
O=c1[nH]c(=O)n([C@H]2C[C@H](O)[C@@H](CO)O2)cc1I | -3.66
CC(C)(C)CC(=O)Nc1c(F)cc(C(=O)N=c2sccn2COP(=O)(O)O)cc1F | 17.2
CN1CCC2=C(C1)C(c1ccccc1)c1ccccc12 (stereo not shown) | 0.65
CSc1nc2cc(Cl)c(Oc3cccc(Cl)c3Cl)cc2[nH]1 | 2.04
O=C(Oc1ccccc1C(=O)O)c1ccccc1O | 5.42
COc1cc([C@@H]2c3cc4c(cc3[C@@H](O[C@@H]3O[C@@H]5CO[C@@H](C)O[C@H]5[C@H](O)[C@H]3O)[C@H]3COC(=O)[C@H]23)OCO4)cc(OC)c1O | -4.37
Cc1cn(-c2cc(NC(=O)c3ccc(C)c(Nc4nccc(-c5cccnc5)n4)c3)cc(C(F)(F)F)c2)cn1 | -6.71
CN1C(=O)N[C@H](Cc2c[nH]c3c(Cl)cccc23)C1=O | -2.43
OC(Cc1ccncc1)C(Cl)(Cl)Cl (stereo not shown) | 5
CC(=O)NCC(=O)N[C@H](CCC(=O)O)C(=O)O | -3.99
O=C1CN2Cc3c(ccc(Cl)c3Cl)N=C2N1 | 1.58
CC(C)(Sc1ccncc1-c1ccc(C#N)c2ccccc12)C(=O)O | -2.17
COc1ccc2[nH]c(C(=O)c3ccccc3)cc2c1 | 3.99
CC1(N)CCN(c2cnc(-c3cccc(Cl)c3Cl)c(N)n2)CC1 | -2.86
O=C(Nc1ccccc1)OCC(CN1CCCCC1)OC(=O)Nc1ccccc1 (stereo not shown) | -4.55
COc1ccc(NS(=O)(=O)c2ccc(/N=N/c3ccc(O)c(C(=O)O)c3)cc2)nn1 | 14.3
Cc1cn([C@@H]2C[C@@H](O)[C@H](CO)O2)c(=O)[nH]c1=O | 3.73
CCN(CC)CCNC(=O)c1ccc(N)cc1 | 27.2
CCN1C[C@H](C)n2c(c(O)c3c(=O)n(Cc4ccc(F)c(Cl)c4)nc(C(=O)NC)c32)C1=O | -2.39
C[C@@H]1O[C@@H](Oc2c(-c3cc(O)c(O)c(O)c3)oc3cc(O)cc(O)c3c2=O)[C@H](O)[C@H](O)[C@H]1O | 50.1
CC(=O)N[C@@H](CCC(N)=O)C(=O)O | 5.97
O=C(O)c1ccc2c(c1)nc(Nc1cccc(Cl)c1)c1ccncc12 | 2.21
O=C1Nc2cc(Cl)c(Cl)cc2N2CCNCC12 (stereo not shown) | 0.22

Series 2 — method: protein-binding microarray; molecule type: double-stranded DNA, one strand shown; matrix: in vitro; tested at: 2540 nM top; setting: 60-bp whole probe; added: salmon DNA 0.4 mg/ml; baseline: random background probes; direction: higher = stronger binding; shared flanks, not repeated: GCCTAGCAC … GTCTTGATTCGCTTGACGCTGCTG
Target: Interferon regulatory factor 3, full length, phosphomimetic (IRF3, Homo sapiens, UniProt Q14653, residues 1-427, S386D/S396D/S398D/S402D/T404D/S405D)
Construct (chain): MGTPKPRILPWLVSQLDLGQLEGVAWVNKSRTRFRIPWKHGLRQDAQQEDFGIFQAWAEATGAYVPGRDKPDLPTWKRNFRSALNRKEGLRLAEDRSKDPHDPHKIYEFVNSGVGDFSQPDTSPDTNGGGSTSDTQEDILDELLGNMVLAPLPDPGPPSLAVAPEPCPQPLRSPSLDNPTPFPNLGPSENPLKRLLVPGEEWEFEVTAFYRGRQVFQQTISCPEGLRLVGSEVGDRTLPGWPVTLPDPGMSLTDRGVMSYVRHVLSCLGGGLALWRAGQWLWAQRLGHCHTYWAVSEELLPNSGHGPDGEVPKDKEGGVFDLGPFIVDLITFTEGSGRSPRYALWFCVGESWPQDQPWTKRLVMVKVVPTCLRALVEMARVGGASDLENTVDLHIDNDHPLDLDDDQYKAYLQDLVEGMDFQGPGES
Strand | fitted relative affinity
GAAGAACTGAGTTTCGAGACGTGCTAG | 1.26 z-score
GGCGGTATCGGGTTTCGGGACGTGCTA | 3.09 z-score
GACGAACTGTGGACTGGAGACGTGCTA | -0.544 z-score
GTAGGTTTCGACACTGGGTTAGTGCTA | 2.63 z-score
GACGATTTCGGGTTTGGAGACGTGCTA | 2.35 z-score
TTAGATTGCAGACTGGATTAGTGCTAG | -0.12 z-score
TCATGTCTGTGTTTCCTACTGTGCTAG | 1.64 z-score
TTAGGTATCGGTCTCGGTCAGTGCTAG | 4.43 z-score

Series 3 — method: universal PBM; molecule type: double-stranded DNA, one strand shown; matrix: in vitro; tested at: not given; direction: higher = stronger binding
Target: Sal-like protein 4, full length isoform B (SALL4, Homo sapiens, UniProt Q9UJQ4-2, residues 1-616)
Setting: 8-mer, flanks averaged, mean of replicates
Target sequence (chain): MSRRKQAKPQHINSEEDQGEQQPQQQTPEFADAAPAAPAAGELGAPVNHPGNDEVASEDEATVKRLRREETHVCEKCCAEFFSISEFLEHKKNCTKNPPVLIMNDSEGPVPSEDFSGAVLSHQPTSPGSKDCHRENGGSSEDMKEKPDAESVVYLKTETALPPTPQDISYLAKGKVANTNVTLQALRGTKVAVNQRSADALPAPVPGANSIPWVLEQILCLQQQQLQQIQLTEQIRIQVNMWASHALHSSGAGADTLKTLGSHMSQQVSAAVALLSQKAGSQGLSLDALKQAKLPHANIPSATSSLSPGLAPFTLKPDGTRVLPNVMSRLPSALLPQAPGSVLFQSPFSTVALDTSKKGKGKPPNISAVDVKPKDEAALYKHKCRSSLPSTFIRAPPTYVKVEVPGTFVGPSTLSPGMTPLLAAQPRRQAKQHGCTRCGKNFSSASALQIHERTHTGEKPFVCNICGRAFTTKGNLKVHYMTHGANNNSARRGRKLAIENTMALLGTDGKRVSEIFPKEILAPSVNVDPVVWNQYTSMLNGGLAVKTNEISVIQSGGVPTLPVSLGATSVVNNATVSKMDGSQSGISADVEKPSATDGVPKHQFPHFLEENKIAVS
Strand | E-score
CACGAATC | -0.165
CGAACATA | 0.263
TTACCTAA | 0.188
AGACCTTA | 0.0107
GACGGCAA | -0.183
GAAATCCA | 0.124
AGACGCCG | -0.228
CGAAGGCC | -0.225

Series 4 — method: protein binding microarray; molecule type: double-stranded DNA, one strand shown; matrix: in vitro; tested at: not given; baseline: not given; direction: higher = stronger binding
Target: Histone acetyltransferase KAT6A, both winged helices, GST fusion (KAT6A, Homo sapiens, UniProt Q92794, residues 1-181)
Setting: 8-mer, flanks averaged, mean of 2 arrays, mostly near background
Residues (chain): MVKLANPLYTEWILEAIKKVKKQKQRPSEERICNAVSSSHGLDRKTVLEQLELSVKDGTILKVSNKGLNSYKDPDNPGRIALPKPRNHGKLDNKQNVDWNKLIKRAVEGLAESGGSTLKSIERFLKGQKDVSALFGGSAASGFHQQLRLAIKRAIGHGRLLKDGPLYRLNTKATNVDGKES
Strand | E-score
ATATCCTG | -0.266
GGCCAGAC | -0.00556
ACTCTACA | -0.167
CCCAAGCA | -0.0567
AACGGACA | 0.171
GAACTATC | -0.132
CGACTAAG | 0.0376
ACCTCGCT | 0.0515

Series 5 — observed: enzyme activity; mode: inhibitor; setting: without DTT
Target: Replicase polyprotein 1ab, main protease (rep, Severe acute respiratory syndrome coronavirus 2, UniProt P0DTD1)
Structure (SMILES) | pIC50
CC(C)Nc1cccnc1N1CCN(C(=O)c2cc3cc(NS(C)(=O)=O)ccc3[nH]2)CC1 | 5.40
c1cnc(SCc2cccnc2)nc1 | 5.05
Nc1ccc2cc3ccc(N)cc3nc2c1 | 6.10

A few entries again (series 1):
Compound | inhibition [%]
Cc1cn(-c2cc(NC(=O)c3ccc(C)c(Nc4nccc(-c5cccnc5)n4)c3)cc(C(F)(F)F)c2)cn1 | -6.71
CN1C(=O)N[C@H](Cc2c[nH]c3c(Cl)cccc23)C1=O | -2.43
OC(Cc1ccncc1)C(Cl)(Cl)Cl (stereo not shown) | 5
CC(=O)NCC(=O)N[C@H](CCC(=O)O)C(=O)O | -3.99
O=C1CN2Cc3c(ccc(Cl)c3Cl)N=C2N1 | 1.58
CC(C)(Sc1ccncc1-c1ccc(C#N)c2ccccc12)C(=O)O | -2.17
COc1ccc2[nH]c(C(=O)c3ccccc3)cc2c1 | 3.99
CC1(N)CCN(c2cnc(-c3cccc(Cl)c3Cl)c(N)n2)CC1 | -2.86
